{"data": "Assay results collected from several papers", "spsB": "Signal peptidase IB (spsB, Staphylococcus aureus, UniProt Q5HHB9)", "TRPM8": "Transient receptor potential cation channel subfamily M member 8 (TRPM8, Homo sapiens, UniProt Q7Z2W7)", "LCK": "Tyrosine-protein kinase Lck (LCK, Homo sapiens, UniProt P06239)", "note": "Each line is one published result; not all experiments were run side by side. Numbers after ± are the reported error."}
{"SMILES": "CNC(=O)c1ccc(NC(=O)Nc2ccc(Cl)c(C(F)(F)F)c2)cc1", "target": "spsB", "assay": "peptidase activity, activator, FRET peptide cleavage", "system": "Staphylococcus aureus, membranes", "conditions": "100 µM", "how to read": "baseline: DMSO", "remaining activity": "198%"}
{"SMILES": "O=C(O)c1ccc(Nc2ncc3c(n2)-c2ccc(Cl)cc2C(c2c(F)cccc2F)=NC3)cc1", "target": "EphA8(h)", "assay": "kinase activity", "conditions": "1 µM", "remaining activity": "87%"}
{"SMILES": "CNC(=O)c1cc(Oc2ccc(N(C)C(=O)Nc3ccc(Cl)c(C(F)(F)F)c3)cc2)ccn1", "target": "spsB", "assay": "peptidase activity, activator, FRET peptide cleavage", "system": "Staphylococcus aureus, membranes", "conditions": "10 µM", "how to read": "baseline: DMSO", "remaining activity": "100%"}
{"SMILES": "O=c1oc(Cl)c(Cl)c2ccccc12", "target": "Rhomboid protease AarA (Providencia stuartii, UniProt P46116)", "assay": "substrate cleavage, gel-based", "conditions": "100 µM", "how to read": "baseline: DMSO", "remaining activity": "37%"}
{"SMILES": "CC(C)N(CCC(=O)c1ccc2ccccc2c1)Cc1ccccc1", "target": "TRPM8", "assay": "antagonist", "system": "HEK293", "conditions": "5 µM", "how to read": "baseline: control", "remaining activity": "101 ± 6.68%"}
{"SMILES": "C=CC(=O)N1CCC([C@@H]2CCNc3c(C(N)=O)c(-c4ccc(Oc5ccccc5)cc4)nn32)CC1", "target": "TRAF2 and NCK-interacting protein kinase (TNIK, Homo sapiens, UniProt Q9UKE5)", "assay": "kinase activity, inhibitor, HotSpot radiometric", "conditions": "100 nM, together with: ATP 10 µM", "remaining activity": "101.4 ± 0.2%"}
{"SMILES": "CCN(CCO)CCCC(C)Nc1ccnc2cc(Cl)ccc12 (stereo not shown)", "target": "Potassium voltage-gated channel subfamily KQT member 1, with KCNE1 (KCNQ1, Homo sapiens, UniProt P51787)", "assay": "IKs current, patch clamp", "system": "HEK293", "conditions": "3 µM", "how to read": "baseline: pre-drug current", "remaining activity": "97.8%"}
{"SMILES": "CC#CC(=O)N1CCC[C@H]1c1nc(-c2ccc(C(=O)Nc3ccccn3)cc2)c2c(N)nccn12", "target": "LCK", "assay": "kinase activity, inhibitor, HotSpot radiometric", "conditions": "100 nM, together with: ATP 10 µM", "remaining activity": "97.25 ± 0.8%"}
{"SMILES": "COc1cc(F)ccc1-c1ncnc(Nc2cccc(C[S@](C)(=N)=O)c2)n1", "target": "LCK", "assay": "kinase activity", "conditions": "10 µM, together with: 10 µM ATP", "remaining activity": "51%"}
{"SMILES": "Oc1ccc(-c2nc(-c3ccc(F)cc3)c(-c3ccncc3)[nH]2)cc1", "target": "TRPM8", "assay": "antagonist", "system": "HEK293", "conditions": "5 µM", "how to read": "baseline: control", "remaining activity": "112 ± 8.39%"}
{"SMILES": "Cc1cc(Nc2cc(N3CCN(C)CC3)nc(Sc3ccc(NC(=O)C4CC4)cc3)n2)[nH]n1", "target": "Receptor-type tyrosine-protein kinase FLT3 (FLT3, Homo sapiens, UniProt P36888, D835Y)", "assay": "kinase activity", "conditions": "0.03 µM", "how to read": "baseline: control", "remaining activity": "93%"}
{"SMILES": "COc1cc(-c2cncc3c2CN(C)Cc2cc(N4CCNCC4)ccc2-3)cc(OC)c1OC", "target": "Mitogen-activated protein kinase kinase kinase 21 (MAP3K21, Homo sapiens, UniProt Q5TCX8)", "assay": "kinase activity", "conditions": "1 µM, human enzyme, together with: ATP 10 µM", "how to read": "baseline: DMSO control", "remaining activity": "116%"}
{"SMILES": "O=C(NC1CCC1)c1ccc2nc(-c3cccc(NS(=O)(=O)NCCN4CCCCC4)c3)cn2c1", "target": "Receptor-type tyrosine-protein kinase FLT3 (FLT3, Homo sapiens, UniProt P36888, N841I)", "assay": "enzyme activity", "conditions": "10 µM", "remaining activity": "58%"}
{"SMILES": "COc1cc(Nc2ncc3c(n2)-c2ccc(Cl)cc2C(c2c(F)cccc2OC)=NC3)ccc1C(=O)O", "target": "CHEK1", "assay": "kinase activity", "conditions": "1 µM", "remaining activity": "83%"}
{"SMILES": "c1cc(-c2cnn3cc(-c4ccc(OCCN5CCCCC5)cc4)cnc23)ccn1", "target": "TRPM8", "assay": "antagonist", "system": "HEK293", "conditions": "5 µM", "how to read": "baseline: control", "remaining activity": "73.5 ± 7.67%"}
{"SMILES": "CCOc1cc(N2CCN(C)CC2)ccc1Nc1nc(N)n(C(=O)NCc2ccccc2S(=O)(=O)C(C)C)n1", "target": "Serine/threonine-protein kinase/endoribonuclease IRE1 (ERN1, Homo sapiens, UniProt O75460)", "assay": "enzyme activity", "conditions": "10 µM", "how to read": "baseline: control", "remaining activity": "14%"}
{"SMILES": "CCCCc1c(-c2ccc(OC)cc2)[nH]c2nccnc12", "target": "TRPM8", "assay": "antagonist", "system": "HEK293", "conditions": "5 µM", "how to read": "baseline: control", "remaining activity": "94.8 ± 8.13%"}
{"SMILES": "O=C(Nc1ccc(Cl)c(C(F)(F)F)c1)N1CCc2ccccc2C1", "target": "spsB", "assay": "peptidase activity, activator, FRET peptide cleavage", "system": "Staphylococcus aureus, membranes", "conditions": "10 µM", "how to read": "baseline: DMSO", "remaining activity": "116%"}
{"SMILES": "O=C1NC(=O)/C(=C/c2ccc(-c3ccc(F)cc3O)o2)S1", "target": "RAC-beta serine/threonine-protein kinase (AKT2, Homo sapiens, UniProt P31751)", "assay": "enzyme activity", "conditions": "10 µM", "remaining activity": "40%"}
{"SMILES": "CNc1ncc2c(/C=C/C(=O)N3CCC(OC)CC3)nn(Cc3cccc(C(F)(F)F)c3)c2n1", "target": "Rho-associated protein kinase 1 (ROCK1, Homo sapiens, UniProt Q13464)", "assay": "kinase activity, inhibitor", "conditions": "1 µM", "how to read": "baseline: untreated control", "remaining activity": "95%"}
{"SMILES": "COc1cc(O)c(CC=C(C)C)c(O)c1C(=O)/C=C/c1ccc(O)cc1", "target": "Thyroxine 5-deiodinase (DIO3, Homo sapiens, UniProt P55073)", "conditions": "200 µM, 0.1667 h", "remaining activity": "11.3%"}
{"SMILES": "O=C(Nc1cccc(NC(=O)Nc2ccc(Cl)c(C(F)(F)F)c2)c1)Nc1ccc(Cl)c(C(F)(F)F)c1", "target": "spsB", "assay": "peptidase activity, activator, FRET peptide cleavage", "system": "Staphylococcus aureus, membranes", "conditions": "50 µM", "how to read": "baseline: DMSO", "remaining activity": "177%"}
{"SMILES": "COc1cc(N2CCN(C)CC2)ccc1Nc1nc(N)n(C(=O)NCc2c(Cl)cccc2Cl)n1", "target": "Serine/threonine-protein kinase PLK2 (PLK2, Homo sapiens, UniProt Q9NYY3)", "assay": "enzyme activity", "conditions": "10 µM", "how to read": "baseline: control", "remaining activity": "24%"}
{"SMILES": "CCN1/C(=C/C(C)=O)Sc2ccc(OC)cc21", "target": "TRPM8", "assay": "antagonist", "system": "HEK293", "conditions": "5 µM", "how to read": "baseline: control", "remaining activity": "106 ± 9.1%"}
{"SMILES": "O=C(Nc1ccc(Cc2ccccc2)cc1)Nc1ccc(Cl)c(C(F)(F)F)c1", "target": "spsB", "assay": "peptidase activity, activator, FRET peptide cleavage", "system": "Staphylococcus aureus, membranes", "conditions": "50 µM", "how to read": "baseline: DMSO", "remaining activity": "206%"}
{"SMILES": "COc1ccc(F)cc1C(=O)NCc1ccc(-c2nn([C@@H](C)C(F)(F)F)c(N)c2C(N)=O)cc1", "target": "Calcium/calmodulin-dependent protein kinase kinase 2 (CAMKK2, Homo sapiens, UniProt Q96RR4)", "assay": "kinase activity, inhibitor, HotSpot radiometric", "conditions": "100 nM, together with: ATP 10 µM", "remaining activity": "106 ± 1.9%"}
{"SMILES": "CCCCNC(=O)c1ccc(NC(=O)Nc2ccc(Cl)c(C(F)(F)F)c2)cc1", "target": "spsB", "assay": "peptidase activity, activator, FRET peptide cleavage", "system": "Staphylococcus aureus, membranes", "conditions": "100 µM", "how to read": "baseline: DMSO", "remaining activity": "154%"}
{"SMILES": "Cc1cccc(-c2[nH]c(C(C)(C)C)nc2-c2ccc3c(c2)OCO3)n1", "target": "TRPM8", "assay": "antagonist", "system": "HEK293", "conditions": "5 µM", "how to read": "baseline: control", "remaining activity": "105 ± 12.1%"}
{"SMILES": "O=C(Nc1ccc(Nc2ccccc2)cc1)Nc1ccc(Cl)c(C(F)(F)F)c1", "target": "spsB", "assay": "peptidase activity, activator, FRET peptide cleavage", "system": "Staphylococcus aureus, membranes", "conditions": "100 µM", "how to read": "baseline: DMSO", "remaining activity": "187%"}
{"SMILES": "NC/C(=C\\F)COc1cccc(Cn2c(=S)[nH]c(=O)c3[nH]cnc32)c1", "target": "Peroxidasin homolog (PXDN, Homo sapiens, UniProt Q92626)", "assay": "Amplex UltraRed", "conditions": "0.625 µM", "how to read": "baseline: control", "remaining activity": "99.8%"}
{"SMILES": "COc1cc(N2CCN(C)CC2)ccc1Nc1nc(N)n(C(=S)NCc2c(Cl)cccc2Cl)n1", "target": "Myosin light chain kinase 2, skeletal/cardiac muscle (MYLK2, Homo sapiens, UniProt Q9H1R3)", "assay": "enzyme activity", "conditions": "10 µM", "how to read": "baseline: control", "remaining activity": "15%"}
{"SMILES": "Cc1cc(NC(=O)c2cccc(NC(=O)/C=C/CN(C)C)c2)ccc1Nc1nccc(-c2cccnc2)n1", "target": "Mitogen-activated protein kinase 8 (MAPK8, Homo sapiens, UniProt P45983)", "assay": "enzyme activity, inhibitor", "conditions": "0.0007527 µM, 0 h, unit not given, together with: GSH 10 mM pre-incubation", "how to read": "baseline: vehicle", "remaining activity": 0.994}
{"SMILES": "O=C1c2ccccc2-c2nc3nnnn3nc21", "target": "TRPM8", "assay": "antagonist", "system": "HEK293", "conditions": "5 µM", "how to read": "baseline: control", "remaining activity": "85 ± 7.68%"}
{"SMILES": "C=CC(=O)N1CCC[C@@H](n2nc(-c3ccc(Oc4ccccc4)cc3)c3c(N)ncnc32)C1", "target": "LCK", "conditions": "1 µM", "remaining activity": "73.4%"}
{"SMILES": "O=C(Nc1cccc(C(F)(F)F)c1)Nc1ccc2c(c1)OC(F)(F)O2", "target": "spsB", "assay": "peptidase activity, activator, FRET peptide cleavage", "system": "Staphylococcus aureus, membranes", "conditions": "100 µM", "how to read": "baseline: DMSO", "remaining activity": "172%"}
{"SMILES": "O=C(c1ccccc1)c1ccc(N2CCOCC2)cc1O", "target": "TRPM8", "assay": "antagonist", "system": "HEK293", "conditions": "5 µM", "how to read": "baseline: control", "remaining activity": "81.2 ± 6.95%"}
{"SMILES": "C=CC(=O)N1CCC[C@@H](n2nc(-c3ccc(Oc4ccccc4)cc3)c3c(N)ncnc32)C1", "target": "Receptor-type tyrosine-protein kinase FLT3 (FLT3, Homo sapiens, UniProt P36888)", "assay": "kinase activity, inhibitor, HotSpot radiometric", "conditions": "100 nM, together with: ATP 10 µM", "remaining activity": "35.9 ± 0.5%"}
